{"data": "Assay results from different studies", "cell line": "HeLa", "note": "Values joined by “and” are separate records of one study, mostly repeats; a detail may differ. ± marks the error that the study gave."}
{"SMILES": "Cc1c(C(=O)Nc2cccc(C(N)=O)c2)cnn1-c1ccccc1", "assay": "cell growth or viability", "measurement": "CC50", "result": "> 50 µM"}
{"SMILES": "CCC(=CCc1c(O)cc2c(c1O)C(=O)CC(c1ccccc1O)O2)CC (stereo not drawn)", "assay": "cytotoxicity, MTT", "conditions": "48 h, with: S9 fraction", "measurement": "log IC50", "result": "1.56 log µM"}
{"SMILES": "COc1ccc2ncc(F)c(C[C@H](O)[C@H]3OC[C@H](NCc4ccc(C)cc4)CO3)c2n1", "assay": "cytotoxicity", "conditions": "24 h", "measurement": "IC50", "result": "> 128 µg/mL"}
{"SMILES": "NC(=O)c1cccc(NC(=O)c2cc(-c3cccs3)n(-c3ccc(Cl)cc3)n2)c1", "assay": "cell growth or viability", "measurement": "CC50", "result": "> 100 µM"}
{"SMILES": "COc1ccc2nccc(CC[C@H]3OC[C@H](NC(=O)c4ccc(C(C)(C)C)cc4)CO3)c2c1", "assay": "cytotoxicity", "conditions": "24 h", "measurement": "IC50", "result": "> 128 µg/mL"}
{"SMILES": "NCc1cccc(CNC(=O)c2cc(-c3ccccc3)n(-c3ccccc3)n2)c1", "assay": "cell growth or viability", "measurement": "CC50", "result": "> 50 µM"}
{"SMILES": "CN1CCCNC(=O)c2cccc(c2)C(=O)NCCCN(C)CCCNc2cccc3c2C(=O)c2cccc(c2C3=O)NCCC1", "assay": "cell growth or viability, CCK-8", "conditions": "50 nM, 48 h", "measurement": "viability", "result": "88.3%"}
{"SMILES": "CCC(=CCc1c(O)cc2c(c1O)C(=O)CC(c1cc(OC)ccc1O)O2)CC (stereo not drawn)", "assay": "cytotoxicity, MTT", "conditions": "48 h, with: S9 fraction", "measurement": "log IC50", "result": "> 2 log µM"}
{"SMILES": "Cc1ccc(S(=O)(=O)n2cc3c4c2C(=O)C(N)=CC4=NCC3)cc1", "assay": "cell growth or viability, MTT", "conditions": "72 h", "measurement": "CC50", "result": "0.6 µM"}
{"SMILES": "CC(C)CN(CCCC[C@H](NC(=O)[C@H](CCCN)NC(=O)[C@@H](NC(=O)[C@H](Cc1ccccc1)NC(=O)c1ccc(C(C)(C)C)cc1)C1CCC1)C(=O)N[C@@H](CO)C(=O)NCCOCCOCCCCCCCl)C1CC2CCC1C2 (stereo partly drawn)", "assay": "cell penetration, chloroalkane penetration", "conditions": "4 h, chloroalkane-tagged compound", "measurement": "CP50", "result": "13 ± 2 µM"}
{"SMILES": "COc1ccc2ncc(F)c(C[C@H](O)[C@H]3OC[C@H](NCc4cc5c(nn4)OCCS5)CO3)c2n1", "assay": "cytotoxicity", "conditions": "24 h", "measurement": "IC50", "result": "> 128 µg/mL"}
{"SMILES": "CN(CCCC[C@H](NC(=O)[C@H](CCCN1CCOCC1)NC(=O)[C@@H](NC(=O)[C@H](Cc1ccccc1)NC(=O)c1ccc(C(C)(C)C)cc1)C1CCC1)C(=O)N[C@@H](CO)C(=O)NCCOCCOCCCCCCCl)C1CC2CCC1C2 (stereo partly drawn)", "assay": "cell penetration, chloroalkane penetration", "conditions": "4 h, chloroalkane-tagged compound", "measurement": "CP50", "result": "12 ± 0.97 µM"}
{"SMILES": "C/C1=C/[C@H](C)C[C@H](C)OC(=O)C[C@H](c2ccc(O)cc2)NC(=O)[C@@H](Cc2ccc(O)cc2)N(C)C(=O)[C@H](C)NC(=O)[C@@H](C)C1", "assay": "cell growth or viability", "measurement": "CC50", "result": "48 µg/mL"}
{"SMILES": "N=C(N)NCCC[C@@H]1NC(=O)[C@H](CCCNC(=N)N)NC(=O)[C@H](CCCNC(=N)N)NC(=O)[C@H](CCCNC(=N)N)NC(=O)[C@H](Cc2ccc3ccccc3c2)NC(=O)[C@H](Cc2ccccc2)NC(=O)CCSSC[C@@H](C(=O)N[C@@H](CCCCNC(=S)Nc2ccc3c(c2)C(=O)OC32c3ccc(O)cc3Oc3cc(O)ccc32)C(N)=O)NC1=O", "assay": "flow cytometry", "conditions": "concentration not given", "how to read": "reference: linear peptide", "measurement": "internalisation increase", "result": "~5 fold"}
{"SMILES": "O=C1C(NCCc2cc(Br)c(O)c(Br)c2)=CC2=NCCc3c[nH]c1c32", "assay": "cell growth or viability, MTT", "conditions": "72 h", "measurement": "CC50", "result": "8 µM"}
{"SMILES": "O=C(O)c1cc(-c2ccccc2)n(-c2ccccc2)n1", "assay": "cell growth or viability", "measurement": "CC50", "result": "> 50 µM"}
{"SMILES": "CCC(=CCc1c(O)cc2c(c1O)C(=O)CC(c1cc(O)ccc1OC)O2)CC (stereo not drawn)", "assay": "cytotoxicity, MTT", "conditions": "48 h, with: S9 fraction", "measurement": "log IC50", "result": "1.47 log µM"}
{"SMILES": "NC(=O)c1cccc(NC(=O)c2cc(-c3ccccc3)n(-c3ccc(Br)cc3)n2)c1", "assay": "cell growth or viability", "measurement": "CC50", "result": "> 50 µM"}
{"SMILES": "COC(=O)c1cc(N(C)S(=O)(=O)c2ccc(OC)cc2)cc(N(C)S(=O)(=O)c2ccc(OC)cc2)c1", "assay": "cell growth or viability, XTT", "conditions": "72 h", "measurement": "IC50", "result": "> 100 µM"}
{"SMILES": "CC(C)C[C@H](NC(=O)[C@H](C)NC(=O)[C@H](Cc1ccccc1)NC(=O)c1ccc(C(C)(C)C)cc1)C(=O)N[C@@H](CCCCN(C)C1CC2CCC1C2)C(=O)N[C@@H](CO)C(=O)NCCOCCOCCCCCCCl (stereo partly drawn)", "assay": "cell penetration, chloroalkane penetration", "conditions": "4 h, chloroalkane-tagged compound", "measurement": "CP50", "result": "0.99 ± 0.27 µM"}
{"SMILES": "COc1ccc(C2CC(=O)c3c(cc(O)c(CC=C(C)C)c3O)O2)cc1 (stereo not drawn)", "assay": "cytotoxicity, MTT", "conditions": "48 h, with: S9 fraction", "measurement": "log IC50", "result": "> 2 log µM"}
{"SMILES": "Cc1ccc(C(NC(=O)c2cc(-c3ccccc3)n(-c3ccccc3)n2)c2ccncc2)cc1 (stereo not drawn)", "assay": "cell growth or viability", "measurement": "CC50", "result": "48 µM"}
{"SMILES": "O=C1C(=O)c2[nH]cc3c2C(=C1Cl)NCC3", "assay": "cell growth or viability, MTT", "conditions": "72 h", "measurement": "CC50", "result": "20 µM"}
{"SMILES": "COc1ccc2ncc(F)c(C(O)C[C@H]3OC[C@H](NCc4ccc5c(c4)OCCO5)CO3)c2c1 (stereo partly drawn)", "assay": "cytotoxicity", "conditions": "24 h", "measurement": "IC50", "result": "> 128 µg/mL"}
{"SMILES": "CC(C)C[C@H](NC(=O)[C@@H](NC(=O)[C@H](Cc1ccccc1)NC(=O)c1ccc(C(C)(C)C)cc1)C1CCC1)C(=O)N[C@@H](CCCCN(C)C1CC2CCC1C2)C(=O)N[C@@H](CO)C(=O)NCCOCCOCCCCCCCl (stereo partly drawn)", "assay": "cell penetration, chloroalkane penetration", "conditions": "4 h, chloroalkane-tagged compound", "measurement": "CP50", "result": "1.3 ± 0.29 µM"}
{"SMILES": "N#Cc1cc(NC(=O)c2cc(-c3ccccc3)n(-c3ccccc3)n2)ccc1N1CCC2(CC1)CNC2", "assay": "cell growth or viability", "measurement": "CC50", "result": "6.3 µM"}
{"SMILES": "CCC(=CCc1c(O)cc2c(c1O)C(=O)CC(c1ccc(OC)c(O)c1)O2)CC (stereo not drawn)", "assay": "cytotoxicity, MTT", "conditions": "48 h, with: S9 fraction", "measurement": "log IC50", "result": "1.21 log µM"}
{"SMILES": "COc1ccc2nccc(CC[C@H]3OC[C@H](NCc4ccc(Cl)c(Cl)c4)CO3)c2c1", "assay": "cytotoxicity", "conditions": "24 h", "measurement": "IC50", "result": "43.5 µg/mL"}
{"SMILES": "NC[C@H]1O[C@H](O[C@H]2[C@H](O)[C@@H](O[C@H]3O[C@H](Cn4cc(CNC(=S)Nc5ccc6c(c5)C(=O)OC65c6ccc(O)cc6Oc6cc(O)ccc65)nn4)[C@@H](O)[C@H](N)[C@H]3O)[C@H](N)C[C@@H]2N)[C@H](O)[C@@H](O)[C@@H]1O", "assay": "flow cytometry", "conditions": "5 µM, 24 h", "measurement": "cellular uptake", "result": "24 ± 10.6%"}
{"SMILES": "S=c1n(-c2ccccc2)c2c3ccccc3nc3[n+]2[n]1[Ir-3]12([S]3)([c]3ccccc3-c3cccc[n+]31)[c]1ccccc1-c1cccc[n+]12", "assay": "ICP-MS", "conditions": "10 µM, 24 h, 37 °C", "measurement": "cellular iridium uptake", "result": "2.85 ± 0.31 fmol/cell"}
{"SMILES": "COc1cc(NC=O)c(N(C)S(=O)(=O)c2ccc(N(C)C)cc2)cc1OC", "assay": "cell growth or viability, XTT", "conditions": "72 h", "measurement": "IC50", "result": "9.4 µM"}
{"SMILES": "COc1cc(/C=C/C=C2\\SC(=S)NC2=O)ccc1O", "assay": "CellTiter-Glo", "conditions": "10 µM, 24 h, unit not given", "how to read": "reference: untreated", "measurement": "viability", "result": "0.964 and 0.935"}
{"SMILES": "COc1ccc2ncc(F)c(C[C@H](O)[C@H]3OC[C@H](NCc4ccc(Cl)c(Cl)c4)CO3)c2c1", "assay": "cytotoxicity", "conditions": "24 h", "measurement": "IC50", "result": "28.8 µg/mL"}
{"SMILES": "O=C(c1cc(-c2ccccc2)n(-c2ccccc2)n1)N(Cc1ccccn1)CC1CCCO1 (stereo not drawn)", "assay": "cell growth or viability", "measurement": "CC50", "result": "> 100 µM"}
{"SMILES": "COc1ccc2ncc(F)c(C[C@H](O)[C@H]3OC[C@H](NCc4ccc5c(n4)NC(=O)CO5)CO3)c2c1", "assay": "cytotoxicity", "conditions": "24 h", "measurement": "IC50", "result": "> 128 µg/mL"}
{"SMILES": "CCC(=CCc1c(O)cc2c(c1O)C(=O)CC(c1cccc(O)c1)O2)CC (stereo not drawn)", "assay": "cytotoxicity, MTT", "conditions": "48 h, with: S9 fraction", "measurement": "log IC50", "result": "1.47 log µM"}
{"SMILES": "O=C1C(NCCc2ccc(O)c(Br)c2)=CC2=NCCc3c[nH]c1c32", "assay": "cell growth or viability, MTT", "conditions": "72 h", "measurement": "CC50", "result": "1.5 µM"}
{"SMILES": "COc1ccc2ncc(F)c(C[C@H](O)[C@H]3OC[C@H](NCc4ccc5c(c4)OCCO5)CO3)c2c1", "assay": "cytotoxicity", "conditions": "24 h", "measurement": "IC50", "result": "> 128 µg/mL"}
{"SMILES": "CCC(=CCc1c(O)cc2c(c1O)C(=O)CC(c1cccc(O)c1OC)O2)CC (stereo not drawn)", "assay": "cytotoxicity, MTT", "conditions": "48 h, with: S9 fraction", "measurement": "log IC50", "result": "1.43 log µM"}
{"note": "Excerpt of the above:"}
{"SMILES": "CC(C)C[C@H](NC(=O)[C@@H](NC(=O)[C@H](Cc1ccccc1)NC(=O)c1ccc(C(C)(C)C)cc1)C1CCC1)C(=O)N[C@@H](CCCCN(C)C1CC2CCC1C2)C(=O)N[C@@H](CO)C(=O)NCCOCCOCCCCCCCl (stereo partly drawn)", "assay": "cell penetration, chloroalkane penetration", "conditions": "4 h, chloroalkane-tagged compound", "measurement": "CP50", "result": "1.3 ± 0.29 µM"}
{"SMILES": "N#Cc1cc(NC(=O)c2cc(-c3ccccc3)n(-c3ccccc3)n2)ccc1N1CCC2(CC1)CNC2", "assay": "cell growth or viability", "measurement": "CC50", "result": "6.3 µM"}
